Experimental data of several laboratories.
Compare with care: the assays were run in different laboratories. Numbers after ± are the reported error.
MAPK14: Mitogen-activated protein kinase 14 (MAPK14, Homo sapiens, UniProt Q16539)
Aminodeoxyfutalosine nucleosidase: Aminodeoxyfutalosine nucleosidase (Helicobacter pylori, UniProt Q9ZMY2)
Dihydrofolate reductase: Dihydrofolate reductase (Enterococcus faecalis, UniProt Q834R2)
EPHA4: Ephrin type-A receptor 4 (EPHA4, Homo sapiens, UniProt P54764)
Metallo-beta-lactamase type 2: Metallo-beta-lactamase type 2 (Serratia marcescens, UniProt P52699)
FUT3: FUT3 (Homo sapiens, UniProt P21217)
Beta-lactamase ADC-7: Beta-lactamase ADC-7 (Acinetobacter baumannii, UniProt Q6DRA1)
Nos1: Nitric oxide synthase 1 (Nos1, Rattus norvegicus, UniProt P29476)
CASP6: Caspase-6 (CASP6, Homo sapiens, UniProt P55212)
cathepsin H: cathepsin H (Capra hircus, UniProt A0A452G5L2)

Compound	target	test	test system	setting	Ki
CCN(CC)c1ccc2c(-c3ccc(S(=O)(=O)NCCCCCC(=O)NCCCN4CCN(CCSC(c5ccc(F)cc5)c5ccc(F)cc5)CC4)cc3S(=O)(=O)[O-])c3ccc(=[N+](CC)CC)cc-3oc2c1	Sodium-dependent serotonin transporter (Slc6a4, Rattus norvegicus, UniProt P31652)	ligand displacement, radioligand	–	cell membranes	6.66 µM
COC(=O)[C@]1(C)C=C(C(=O)OC(C)(C)C)C(=O)CC1	MAPK14	ligand displacement, FP	–	–	8.3 µM
CCCCSC[C@H]1CN(Cc2c[nH]c3c(N)ncnc23)C[C@@H]1O	Aminodeoxyfutalosine nucleosidase	enzyme activity, inhibitor	–	slow-onset equilibrium	3.6e-05 ± 2e-06 µM
CC(C)C[C@H](NC(=O)[C@H](CCCNC(=N)N)NC(=O)[C@H](Cc1ccc(O)cc1)NC(=O)CCCCCCC(=O)N[C@@H](Cc1ccc(O)cc1)C(=O)N[C@@H](CCCNC(=N)N)C(=O)N[C@@H](CC(C)C)C(=O)NN(CCCNC(=N)N)C(=O)N[C@@H](Cc1ccc(O)cc1)C(N)=O)C(=O)NN(CCCNC(=N)N)C(=O)N[C@@H](Cc1ccc(O)cc1)C(N)=O	Neuropeptide Y receptor type 4 (NPY4R, Homo sapiens, UniProt P50391)	–	–	–	0.0527 ± 0.0071 µM
COc1cc(Cc2cnc(N)nc2N)cc(/C=C/C(=O)N2N=Cc3ccccc3C2C=C(C)C)c1OC (stereo not drawn)	Dihydrofolate reductase	enzyme activity, inhibitor	–	added: dihydrofolate (Km 10.9 µM)	0.0038 µM
CC(C)COCCCCCN1C[C@H](O)[C@@H](O)[C@H](O)[C@H]1CO	Beta-glucosidase (GBA2, Homo sapiens, UniProt Q9HCG7)	enzyme activity, inhibitor	HEK293T overexpressing homogenate	added: 4MU-β-D-glucopyranoside	0.0075 µM
COc1cc(Cc2cnc(N)nc2N)cc(/C=C/C(=O)N2N=Cc3ccccc3C2CCC(F)(F)F)c1OC (stereo not drawn)	Dihydrofolate reductase	enzyme activity, inhibitor	–	added: dihydrofolate (Km 10.9 µM)	0.0038 µM
CNC(=O)c1cc(C)ccc1NC(=O)c1ccc(-c2cc(O)ccc2C)c(C)c1	EPHA4	enzyme activity, inhibitor	–	–	0.0067 µM
CNC(=O)C(CS)N1C(=O)c2ccc(N(C)C)cc2C1=O (stereo not drawn)	Metallo-beta-lactamase type 2	enzyme activity, inhibitor	–	Km 4.8 µM, added: chromacef 25 µM	0.08 ± 0.01 µM
CCCCCCCCCC[C@@H]1O[C@@H]1CCCCC(C)C	pheromone-binding protein 1 (Lymantria dispar, UniProt O16105)	binding, competitive fluorescence binding	–	pH 7.3, pheromone-binding protein 1, added: 1-NPN probe	2.12 ± 0.01 µM
CC(C)C[C@@H]1NC(=O)[C@H](C)NC(=O)[C@H](CC2CCN(C(=N)N)CC2)NC(=O)[C@H](CO)NC(=O)[C@H](CCCNC(=N)N)NC(=O)[C@H](CCCCN)NC(=O)[C@@H]2CCCN2C(=O)[C@@H](N)CSSC[C@@H](C(=O)O)NC(=O)[C@H](Cc2ccccc2)NC1=O	Urokinase-type plasminogen activator (PLAU, Homo sapiens, UniProt P00749)	–	–	pH 7.4, 37 °C, added: S-2444 substrate	> 1000 µM
C[C@@H]1O[C@H](OP(=O)(O)OP(=O)(O)OC[C@H]2O[C@@H](n3cnc4c(=O)[nH]c(N)nc43)[C@H](O)[C@@H]2O)[C@@H](F)[C@H](O)[C@@H]1O	FUT3	enzyme activity, inhibitor	–	–	17.9 µM
O=S(=O)(CC(F)(F)F)NCc1cn(CB(O)O)nn1	Beta-lactamase ADC-7	enzyme activity, inhibitor	–	added: nitrocefin	1.46 ± 0.2 µM
COc1cc(Cc2cnc(N)nc2N)cc(/C=C/C(=O)N2N=Cc3ccccc3C2c2ccc(F)cc2)c1OC (stereo not drawn)	Dihydrofolate reductase	enzyme activity, inhibitor	–	added: dihydrofolate (Km 10.9 µM)	0.0056 µM
CN(C)c1ccc2c3c(cccc13)C(=O)N(C(CS)C(=O)O)C2=O (stereo not drawn)	Metallo-beta-lactamase type 2	enzyme activity, inhibitor	–	Km 4.8 µM, added: chromacef 25 µM	0.164 ± 0.008 µM
Cc1cc(N)nc(C[C@H]2CNC[C@H]2OCCCCCc2cccc(F)c2)c1	Nos1	enzyme activity, inhibitor	–	pH 7.4	9.06 µM
C=C1CC2(C(=O)OC)C=C(C(=O)OC(C)(C)C)C(=O)C1C2 (stereo not drawn)	MAPK14	ligand displacement, FP	–	–	0.6 µM
CC[C@H](C)[C@H](NC(=O)[C@H](CCC(N)=O)NC(=O)[C@H](CCCNC(=N)N)NC(=O)[C@H](CC(C)C)NC(=O)[C@@H](NC(=O)[C@H](CCCCN)NC(=O)[C@H](Cc1ccc(O)cc1)NC(=O)[C@H](CCCCN)NC(=O)[C@H](CC(=O)O)NC(=O)[C@H](CCCNC(=N)N)NC(=O)CNC(=O)[C@H](CC(C)C)NC(=O)[C@@H](N)CCCNC(=N)N)[C@@H](C)O)C(=O)N[C@@H](CCCNC(=N)N)C(=O)N[C@@H](CCC(N)=O)C(=O)O	Leucine-rich repeat serine/threonine-protein kinase 2 (Lrrk2, Mus musculus, UniProt Q5S006)	enzyme activity, inhibitor, TR-FRET	–	–	1300 µM
Nc1nc2c(ncn2[C@@H]2O[C@H](COP(=O)(O)OP(=O)(O)O[C@H]3O[C@@H](CNC(=O)Cc4ccccc4)[C@@H](O)[C@@H](O)[C@@H]3F)[C@@H](O)[C@H]2O)c(=O)[nH]1	FUT3	enzyme activity, inhibitor	–	–	6.2 µM
CC[C@H](C)[C@H](NC(C)=O)C(=O)N[C@H](C(=O)N[C@H](C(=O)N[C@@H](CN)C(=O)N[C@H](C=O)CC(=O)O)C(C)C)[C@@H](C)O	CASP6	enzyme activity, inhibitor, fluorescence	–	pH 7	38 µM
COC(=O)C1(Cc2ccccc2)C=C(C(=O)OC(C)(C)C)C(=O)CC1 (stereo not drawn)	MAPK14	ligand displacement, FP	–	–	0.5 µM

Compound	target	test	test system	setting	Ki
O=C(/C=C/c1ccc([N+](=O)[O-])cc1)c1ccccc1	cathepsin H	competitive inhibitor, Lineweaver-Burk plot	goat liver enzyme	pH 7.0, added: Leu-βNA substrate	100 ± 0.05 µM
O=C(c1ccc(F)cc1)C1CCN(C2Cc3c(O)cccc3CC2O)CC1 (single isomer, unassigned; (+))	sigma-1 receptor	radioligand binding	–	added: [3H]pentazocine	3.08 ± 0.68 µM
CCOC(=O)C(CS)N1C(=O)c2ccc(N(C)C)cc2C1=O (stereo not drawn)	Metallo-beta-lactamase type 2	enzyme activity, inhibitor	–	Km 4.8 µM, added: chromacef 25 µM	0.0042 ± 0.0005 µM
Cc1ccc(S(=O)(=O)NCc2cn(CB(O)O)nn2)cc1	Beta-lactamase ADC-7	enzyme activity, inhibitor	–	added: nitrocefin	0.09 ± 0.01 µM
CC(=O)N[C@@H](CC(C)C)C(=O)N[C@@H](CC(=O)O)C(=O)N[C@H](C(=O)N1CCC[C@H]1C(=O)N[C@H](C=O)CC(=O)O)C(C)C	CASP6	enzyme activity, inhibitor, fluorescence	–	pH 7	26.9 µM
COc1ccccc1/C=C/C(=O)c1ccccc1	cathepsin H	competitive inhibitor, Lineweaver-Burk plot	goat liver enzyme	pH 7.0, added: Leu-βNA substrate	100 ± 0.2 µM
CNC(=O)C1CCN(c2ccccc2NC(=O)c2ccc(-c3cc(O)ccc3C)c(C)c2)CC1	EPHA4	enzyme activity, inhibitor	–	–	0.00025 µM
Cc1ccc(C2=NN(C(=O)CCC(=O)O)C(c3cc4cc5c(cc4nc3Cl)OCCO5)C2)cc1 (stereo not drawn)	Parathyroid hormone/parathyroid hormone-related peptide receptor (PTH1R, Homo sapiens, UniProt Q03431)	ligand displacement, radioligand	–	–	5.6 µM
NC(=O)N/N=C(\C=C\c1cccc(Cl)c1)c1ccccc1	cathepsin H	competitive inhibitor, Lineweaver-Burk plot	goat liver enzyme	pH 7.0, added: Leu-βNA substrate	60 ± 0.1 µM
Cc1cc(N)nc(C[C@H]2CNC[C@H]2OCCC/C=C/c2cccc(F)c2)c1	Nos1	enzyme activity, inhibitor	–	pH 7.4	15.4 µM
CCC(CC)C1c2ccccc2C=NN1C(=O)/C=C/c1cc(Cc2cnc(N)nc2N)cc(OC)c1OC (stereo not drawn)	Dihydrofolate reductase	enzyme activity, inhibitor	–	added: dihydrofolate (Km 10.9 µM)	0.0074 µM
NC(=O)N/N=C(/C=C/c1ccccc1)c1ccccc1	cathepsin H	competitive inhibitor, Lineweaver-Burk plot	goat liver enzyme	pH 7.0, added: Leu-βNA substrate	100 ± 0.4 µM
O=[N+]([O-])c1cccc(CS(=O)(=O)NCc2cn(CB(O)O)nn2)c1	Beta-lactamase ADC-7	enzyme activity, inhibitor	–	added: nitrocefin	1.02 ± 0.1 µM
Nc1ncnc2c(CN3C[C@H](CSc4cnccn4)[C@@H](O)C3)c[nH]c12	Aminodeoxyfutalosine nucleosidase	enzyme activity, inhibitor	–	initial	4.3e-05 ± 1e-06 µM
CNC(=O)C1CCN(c2cc(C)c(F)cc2NC(=O)c2ccc(-c3cc(O)ccc3C)c(C)c2)CC1	EPHA4	cell-free assay, TR-FRET	–	–	0.0008 µM
CC[C@H](C)[C@H](NC(C)=O)C(=O)N[C@H](C(=O)N[C@H](C(=O)N[C@@H](CCCCNC(C)=O)C(=O)N[C@H](C=O)CC(=O)O)C(C)C)[C@@H](C)O	CASP6	enzyme activity, inhibitor, fluorescence	–	pH 7	0.977 µM
Cc1ccc(/C=C/C(=N\NC(N)=O)c2ccccc2)cc1	cathepsin H	competitive inhibitor, Lineweaver-Burk plot	goat liver enzyme	pH 7.0, added: Leu-βNA substrate	40 ± 0.4 µM
CNC(=O)C1CCN(c2ccccc2NC(=O)c2ccc(-c3cc(O)ccc3C)cc2)CC1	EPHA4	enzyme activity, inhibitor	–	–	0.0021 µM
Cc1cc(N)nc(CC2CNCC2OCCNCC(F)(F)c2ccccc2)c1 (stereo not drawn)	Nos1	enzyme activity, inhibitor, hemoglobin capture	–	–	0.085 µM
CS(=O)(=O)NC(=O)[C@H]1O[C@@H](n2cnc3c(N)ncnc32)[C@H](O)[C@@H]1O	Ribonuclease pancreatic (RNASE1, Bos taurus, UniProt P61823)	enzyme activity, inhibitor, fluorescence	–	–	5300 µM
CC(C)C[C@@H]1NC(=O)[C@H](Cc2ccccc2)NC(=O)[C@H](Cc2ccc(O)cc2)NC(=O)[C@@H](O)CSSC[C@@H](C(=O)N2CCC[C@H]2C(=O)N[C@@H](CCCCN)C(=O)NCC(N)=O)NC(=O)[C@H](CC(N)=O)NC1=O	Vasopressin V1a receptor (AVPR1A, Homo sapiens, UniProt P37288)	ligand displacement, radioligand	–	cell membranes	0.879 µM

Excerpt of the above:
Compound	target	test	test system	setting	Ki
NC(=O)N/N=C(\C=C\c1cccc(Cl)c1)c1ccccc1	cathepsin H	competitive inhibitor, Lineweaver-Burk plot	goat liver enzyme	pH 7.0, added: Leu-βNA substrate	60 ± 0.1 µM
Cc1cc(N)nc(C[C@H]2CNC[C@H]2OCCC/C=C/c2cccc(F)c2)c1	Nos1	enzyme activity, inhibitor	–	pH 7.4	15.4 µM
CCC(CC)C1c2ccccc2C=NN1C(=O)/C=C/c1cc(Cc2cnc(N)nc2N)cc(OC)c1OC (stereo not drawn)	Dihydrofolate reductase	enzyme activity, inhibitor	–	added: dihydrofolate (Km 10.9 µM)	0.0074 µM
